Published values pooled from the literature.
Every numbered part comes from another study and shows a few of its results, in no order. Changes are numbered by the printed parent chain.

Study 1
Target: CCNB2, cyclin fold, Cln2 fusion (human)
Technique: yeast growth competition, sequencing
Medium: yeast
Notes: weak parent motif
Reference: not given
Reading: higher = stronger binding
Parent: E2F7 docking peptide (human); SSAQRRLEIPSGG; partner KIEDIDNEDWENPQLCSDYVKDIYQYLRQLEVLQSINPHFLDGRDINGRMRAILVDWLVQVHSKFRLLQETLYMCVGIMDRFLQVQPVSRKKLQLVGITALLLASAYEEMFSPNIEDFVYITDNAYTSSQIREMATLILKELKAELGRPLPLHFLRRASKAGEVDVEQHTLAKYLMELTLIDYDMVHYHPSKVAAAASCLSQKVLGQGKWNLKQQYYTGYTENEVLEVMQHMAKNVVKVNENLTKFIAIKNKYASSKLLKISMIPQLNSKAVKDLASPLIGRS
Under “normalised enrichment score”, `L7A` is recorded as -0.269.
`S2A`: “normalised enrichment score” -0.0292.
For `R5K I9L`, “normalised enrichment score” read 0.0525.
For `I9L`, “normalised enrichment score” read 0.288.
For `Q4A`, “normalised enrichment score” read 0.253.
`P10A` — result for “normalised enrichment score”: -0.0499.
`R6A`: “normalised enrichment score” -0.576.
`I9A` — result for “normalised enrichment score”: 0.0708.

Study 2
Target: Histone acetyltransferase KAT6A, winged helix 2, GST fusion (KAT6A, Homo sapiens, UniProt Q92794, residues 85-181)
Technique: protein binding microarray
Form: double-stranded DNA, one strand shown
Medium: in vitro
Concentration: not given
Notes: 8-mer, flanks averaged, mean of 2 arrays, mostly near background
Reference: not given
Reading: higher = stronger binding
Residues (chain): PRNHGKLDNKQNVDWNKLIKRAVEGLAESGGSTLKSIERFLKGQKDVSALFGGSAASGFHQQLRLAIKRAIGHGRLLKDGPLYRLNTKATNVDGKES
With `GGGCGGGA` the E-score was 0.163.
`AAGTAGTG` has an E-score of -0.219.
For `ACTTTGGA`, the E-score was 0.0791.
For `GAGTAGCA`, the E-score was 0.215.
The E-score of `CCATATCG` is reported as -0.075.
The E-score of `ATATTCGC` is reported as -0.0217.
`GGGCGAAC` gave an E-score of 0.16.
`AATAAGGC` has an E-score of -0.105.
`CTATTGGC` gave an E-score of -0.0373.
`ACCCGAGA` gave an E-score of 0.119.
`CTCATCCA` has an E-score of -0.00911.
For `GGAGTTAC`, the E-score was 0.028.
For `AAACAATC`, the E-score was 0.0959.
`AGACAAAC` gave an E-score of 0.0248.
`ACTGTTGA` has an E-score of -0.207.
`ATGGCATC` gave an E-score of -0.0757.
The E-score of `CGCTCTTC` is reported as 0.0501.
`CGGGCTTC` has an E-score of 0.117.
`TTGAAAAA` gave an E-score of 0.11.
`AGTCTCCA` gave an E-score of -0.0329.
For `ATGATTCG`, the E-score was 0.00797.
The E-score of `AAAATTGG` is reported as -0.159.

Study 3
Target: Prothrombin, mature alpha-thrombin (F2, Homo sapiens, UniProt P00734)
Technique: aptamer microarray, sandwich
Form: DNA with 2'F-ANA
Medium: in vitro
Concentration: 200 nM
Notes: whole 15-mer aptamer, many near background
With: Cy3 exosite-II aptamer, 400 nM
Reading: higher = stronger binding
Sequence: GGTTGGTGTGGTTGG
`2'F-ANA at 1 2 6 8 10 11 15` — result for “mean fluorescence intensity”: 52.5 a.u.
`2'F-ANA at 1 2 3 6 7 8 13 14`: “mean fluorescence intensity” 78.2 a.u.
Under “mean fluorescence intensity”, `2'F-ANA at 5 6 8 9 13 14` is recorded as 48.2 a.u.
Under “mean fluorescence intensity”, `2'F-ANA at 2 3 6 8 10 12 14 15` is recorded as 253 a.u.
`2'F-ANA at 4 6 8 9 13 14 15`: “mean fluorescence intensity” 72.9 a.u.
For `2'F-ANA at 1 2 4 5 8 9 11 13`, “mean fluorescence intensity” read 52.3 a.u.
Under “mean fluorescence intensity”, `2'F-ANA at 1 2 3 4 5 7 8 9 15` is recorded as 64.5 a.u.
Under “mean fluorescence intensity”, `2'F-ANA at 7 11 12 13 14 15` is recorded as 249 a.u.
`2'F-ANA at 5 6 8 10 11 13`: “mean fluorescence intensity” 46.9 a.u.
`2'F-ANA at 1 5 7 8 9 11 14` — result for “mean fluorescence intensity”: 45.6 a.u.
For `2'F-ANA at 5 6 7 8 10 11 13 14 15`, “mean fluorescence intensity” read 46.1 a.u.
`2'F-ANA at 1 3 4 5 6 8 11 14` — result for “mean fluorescence intensity”: 48.7 a.u.
Under “mean fluorescence intensity”, `2'F-ANA at 1 2 3 5 8 10 11` is recorded as 58.3 a.u.
Under “mean fluorescence intensity”, `2'F-ANA at 1 3 5 7 9 10 11` is recorded as 45.3 a.u.
For `2'F-ANA at 1 2 4 5 6 9 11 14`, “mean fluorescence intensity” read 54.1 a.u.
`2'F-ANA at 2 3 4 7 9 10 11 13 14`: “mean fluorescence intensity” 168 a.u.
`2'F-ANA at 1 3 4 8 10 11 14`: “mean fluorescence intensity” 53.3 a.u.
For `2'F-ANA at 2 3 4 6 8 9 10 11 12 14`, “mean fluorescence intensity” read 166 a.u.
Under “mean fluorescence intensity”, `2'F-ANA at 1 4 7 8 9 11 13 15` is recorded as 88.6 a.u.

Study 4
Target: ABI1, truncated, D143A, DHFR fusion (Arabidopsis thaliana)
Technique: DHFR PCA, deep sequencing
Medium: yeast
Notes: methotrexate growth selection, single substitutions
With: (+)-ABA 2500 µM
Reference: wild-type fitted maximum
Reading: higher = stronger binding
Parent: PYL1, truncated, DHFR fusion (Arabidopsis thaliana); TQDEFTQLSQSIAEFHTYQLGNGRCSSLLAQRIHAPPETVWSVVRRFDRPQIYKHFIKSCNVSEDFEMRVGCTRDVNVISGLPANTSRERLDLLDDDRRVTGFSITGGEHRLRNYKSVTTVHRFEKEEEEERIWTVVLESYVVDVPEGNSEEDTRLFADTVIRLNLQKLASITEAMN
`G148H` — result for “relative binding score”: 90.8%.
`Q7F` — result for “relative binding score”: 81.1%.
`S87D`: “relative binding score” 19.7%.
Under “relative binding score”, `L169V` is recorded as 72.1%.
`D65T`: “relative binding score” 93%.
`Q19M`: “relative binding score” 95.5%.
`I57H` — result for “relative binding score”: 66%.
Under “relative binding score”, `R99W` is recorded as 101%.
For `G148V`, “relative binding score” read 79.8%.
For `L20E`, “relative binding score” read 102%.
`R24D`: “relative binding score” 99.1%.
`K54R`: “relative binding score” 77.8%.
`R88I`: “relative binding score” 101%.
`L8P` — result for “relative binding score”: 79.4%.
Under “relative binding score”, `R111L` is recorded as 86.2%.

Study 5
Target: Centromere-binding protein 1, full length, His-tagged (CBF1, Saccharomyces cerevisiae, UniProt P17106, residues 1-351)
Chain of UniProt P17106 (whole entry, looked up): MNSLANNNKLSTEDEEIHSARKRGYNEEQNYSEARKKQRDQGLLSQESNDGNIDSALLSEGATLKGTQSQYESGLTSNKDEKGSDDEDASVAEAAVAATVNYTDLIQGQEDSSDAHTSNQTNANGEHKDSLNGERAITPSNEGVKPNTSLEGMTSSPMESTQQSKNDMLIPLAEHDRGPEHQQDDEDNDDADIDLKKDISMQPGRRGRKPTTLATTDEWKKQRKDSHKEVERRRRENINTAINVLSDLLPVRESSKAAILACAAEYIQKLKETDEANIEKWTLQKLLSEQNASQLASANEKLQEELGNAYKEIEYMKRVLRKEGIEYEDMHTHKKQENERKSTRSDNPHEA
Technique: competition protein-binding microarray
Form: double-stranded DNA, one strand shown
Medium: in vitro
Concentration: 2 µM
Notes: whole 60-bp probe, lowest competitor level
With: Pho4 competitor, 0.05 µM
Reading: higher = stronger binding
For `TTCTTAATTTTTTTGCACGTTTTTCAGCTTCTGGTTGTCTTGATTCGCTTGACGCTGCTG`, the fluorescence intensity was 286 a.u.
The fluorescence intensity of `CTTCTGTAAATTTTTCACGTGATGTGAAGCGCCCCGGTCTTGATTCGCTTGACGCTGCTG` is reported as 2910 a.u.
`TAATGCCCGACATTGGACGTGGGACGATAAAGATTGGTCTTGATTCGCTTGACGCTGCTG` has a fluorescence intensity of 60.8 a.u.
For `CGTCCTAGTGATTGCCCGGTGGGTGCCATGAGGAAGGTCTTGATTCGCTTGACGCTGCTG`, the fluorescence intensity was 88.4 a.u.
With `CTAACGAAGGTTTGTATAGTGGGTGACAAGCCAAGTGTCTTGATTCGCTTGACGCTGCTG` the fluorescence intensity was 61.3 a.u.
With `AGATTAGTCTATTTGACCGTGCCGATTTTGCACTTTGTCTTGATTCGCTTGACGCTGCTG` the fluorescence intensity was 93.8 a.u.
`GGTCTAAACCCATCTCACGTTCCCTATTAGTGGGTGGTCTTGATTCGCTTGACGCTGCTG` has a fluorescence intensity of 105 a.u.
`TCATTGCTGGCTTGCCACGTGATGGCAATAGGCTTTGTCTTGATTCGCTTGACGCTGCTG` gave a fluorescence intensity of 5000 a.u.
`CATACCCAACCTTGTCGTGTGGGTGAAGATATTTGTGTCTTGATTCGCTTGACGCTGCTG` has a fluorescence intensity of 81.1 a.u.
For `TGCGCAACAACTTGCAAAGTGGGTGTATGTCTAGAAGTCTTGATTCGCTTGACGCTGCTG`, the fluorescence intensity was 65.6 a.u.
With `AAATTACTAAGTTTTCACGTGTGCTACCCCGTATGAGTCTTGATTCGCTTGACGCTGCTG` the fluorescence intensity was 802 a.u.
`ATACTATCATTAACTTCCGTGACTCGATTGGTTTGCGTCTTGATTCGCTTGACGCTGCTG` gave a fluorescence intensity of 113 a.u.
With `CGGGGTTAAGTTTGGCTTGTGGGTGGCTTGCAGCAGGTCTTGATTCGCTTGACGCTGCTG` the fluorescence intensity was 56.4 a.u.
The fluorescence intensity of `CATACCCAACCTTTTCACGTGTCATAAGATATTTGTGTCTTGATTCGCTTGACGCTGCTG` is reported as 1150 a.u.
With `ATTTTTACGGTTACCCACGTACTGCCAGCCATTAGAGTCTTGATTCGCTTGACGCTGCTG` the fluorescence intensity was 71.1 a.u.
The fluorescence intensity of `GGAGATGCCAGAAAAAGCGTGGGTACTGGTCTGGTTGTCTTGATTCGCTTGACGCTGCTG` is reported as 59.9 a.u.
`CTGAACATCCTATTCCTCGTGGCCGAATGGTTACGGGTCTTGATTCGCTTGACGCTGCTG` has a fluorescence intensity of 80.3 a.u.
`CCACTAATTAGCTGTCATGTGCCTGCGAACGCCCAAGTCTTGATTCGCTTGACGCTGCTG` gave a fluorescence intensity of 839 a.u.
The fluorescence intensity of `CACACCAAAAGAGTGTGCGTGTCCTGTCATTCGAGTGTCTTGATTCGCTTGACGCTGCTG` is reported as 70.3 a.u.
`CTTCTGTAAATTTGTTGAGTGGGTGGACGCGCCCCGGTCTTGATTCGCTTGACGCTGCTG` has a fluorescence intensity of 83.2 a.u.
The fluorescence intensity of `GTATGCACTTGAAACAACGTGTAGACCATCAATTGGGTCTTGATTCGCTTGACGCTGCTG` is reported as 120 a.u.
`CTAACGAAGGTTTGAGTCGTGGGTGACAAGCCAAGTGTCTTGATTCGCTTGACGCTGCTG` gave a fluorescence intensity of 69.4 a.u.
`ACTGAAAAAAGCCTGCGCGTGCGGAAACAAAACTGCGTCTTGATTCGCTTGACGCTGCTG` has a fluorescence intensity of 106 a.u.
With `GAAATGAGGTTTTAGCACGTGATGGGGAAGCCACAGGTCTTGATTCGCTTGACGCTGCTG` the fluorescence intensity was 4800 a.u.

Mixed results
With `PhoQ, residues 284 288 289 292 302 303 SCKMEA` the fold induction was 2.3 (PhoP, residues 12 14 15 18 19 GHCSL (Escherichia coli, UniProt P23836); Sort-seq, measured: YFP reporter; E. coli; PhoQ-PhoP variant library, with: 10 µM Mg2+; reference: high Mg2+ state, higher = stronger signaling).

For quick reference, copied from above (study 2):
`TTGAAAAA` gave an E-score of 0.11.
For `AAACAATC`, the E-score was 0.0959.
The E-score of `CGCTCTTC` is reported as 0.0501.
The E-score of `ATATTCGC` is reported as -0.0217.
`CGGGCTTC` has an E-score of 0.117.
The E-score of `CCATATCG` is reported as -0.075.
`GGGCGAAC` gave an E-score of 0.16.
`AATAAGGC` has an E-score of -0.105.
`AGACAAAC` gave an E-score of 0.0248.
For `GGAGTTAC`, the E-score was 0.028.
`CTATTGGC` gave an E-score of -0.0373.
`ACTGTTGA` has an E-score of -0.207.
For `ACTTTGGA`, the E-score was 0.0791.
`CTCATCCA` has an E-score of -0.00911.
`AAGTAGTG` has an E-score of -0.219.
